Experimental data pooled from the literature.
Parts stem from different laboratories: compare values within a part only.

Set 1
Target: PABPC1L2, full length, GST fusion (mouse, UniProt A0ABA7IW68)
Method: RNAcompete
Form: RNA
Matrix: in vitro
Concentration: 20 nM
Setting: 7-mer, probes averaged, single round
Baseline: mean of 7-mers
Direction: higher = stronger binding
Target sequence (chain): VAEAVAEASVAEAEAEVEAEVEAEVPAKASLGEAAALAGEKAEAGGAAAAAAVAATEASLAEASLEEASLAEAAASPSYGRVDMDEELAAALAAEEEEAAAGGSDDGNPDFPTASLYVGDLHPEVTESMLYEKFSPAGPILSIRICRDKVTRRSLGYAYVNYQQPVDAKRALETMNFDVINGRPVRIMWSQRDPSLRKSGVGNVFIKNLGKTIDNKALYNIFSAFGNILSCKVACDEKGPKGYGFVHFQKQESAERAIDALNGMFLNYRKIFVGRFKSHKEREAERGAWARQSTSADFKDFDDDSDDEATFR
`UUUAUUG` has a 7-mer Z-score of 0.131.
The 7-mer Z-score of `GGUGGAC` is reported as 0.347.
For `UAAUAAA`, the 7-mer Z-score was 1.01.
`UAGGCCA` has a 7-mer Z-score of -0.112.
For `UAAUCCU`, the 7-mer Z-score was -0.338.
With `UCACGUG` the 7-mer Z-score was -0.257.
`GGUAAAG` has a 7-mer Z-score of 0.423.
For `GUCUUCA`, the 7-mer Z-score was -0.322.

Set 2
Target: Ras GTPase-activating protein-binding protein 1, full length (G3BP1, Homo sapiens, UniProt Q13283)
Sequence of UniProt Q13283 (whole entry, looked up): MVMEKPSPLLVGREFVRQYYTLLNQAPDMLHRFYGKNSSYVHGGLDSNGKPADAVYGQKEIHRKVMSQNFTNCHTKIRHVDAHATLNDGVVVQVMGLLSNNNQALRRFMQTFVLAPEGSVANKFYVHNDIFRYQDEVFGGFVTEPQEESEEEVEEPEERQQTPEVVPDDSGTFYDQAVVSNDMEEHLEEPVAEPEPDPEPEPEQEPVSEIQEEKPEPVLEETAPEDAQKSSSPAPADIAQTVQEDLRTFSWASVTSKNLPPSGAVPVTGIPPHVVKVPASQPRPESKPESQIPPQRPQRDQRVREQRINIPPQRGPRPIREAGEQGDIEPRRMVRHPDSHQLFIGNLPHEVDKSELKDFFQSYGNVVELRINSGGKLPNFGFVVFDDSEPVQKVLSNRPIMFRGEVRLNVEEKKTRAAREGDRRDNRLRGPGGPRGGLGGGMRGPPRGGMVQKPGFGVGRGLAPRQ
Method: RNA Bind-n-Seq
Form: RNA
Matrix: in vitro
Concentration: 200 nM
Setting: whole 134-nt RNA, ends assumed
With: 150 mM KCl
Baseline: input library
Direction: higher = stronger binding
`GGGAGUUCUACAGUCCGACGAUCCACAGACAACACGCACCCACACAGACACAGAGGGAAGGGGUUGGGAUGGGGACAGGGUGCAAAACAGGGCGGGGUAGGACCCCAGCCCCUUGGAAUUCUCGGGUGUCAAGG` has a log2 enrichment of 1.72.
`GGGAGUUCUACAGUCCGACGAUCCUCAAGUCCUGUGCUACACAUCGUAUGUACCGAAUCGGUUGGGGUUGGGUUGGAAAGUAUUAUGUUACGCCGUUCGGAUCUGCACUUCCAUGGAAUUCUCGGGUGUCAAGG` gave a log2 enrichment of -0.133.
The log2 enrichment of `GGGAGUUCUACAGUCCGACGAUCGCAGGAAGUAAAAACAAAUGGAAAUGCUUCGGAUAGUGGCAGGGGUGGGGGUUGCUAGGGAAAGGGUGGGAUGGGAGUGGGUAAAGAGUUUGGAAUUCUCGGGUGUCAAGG` is reported as 1.
For `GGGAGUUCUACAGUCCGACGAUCUCAAGUCCUGUGCUACACAUCGUAUGUACCGAAUCGGGUUUGGUUUGGGUUUGGAAAGUAUUAUGUUACGCCGUUCGGAUCUGCACUUCCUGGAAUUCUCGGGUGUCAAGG`, the log2 enrichment was -0.723.
For `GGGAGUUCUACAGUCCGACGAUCUGGCCCUGGUGGCAUGCGGGGAGGAAGAGGUGGCCUCAUGGAUCGUGGUGGUCCCGGUGGAAUGUUCCGAGGUGGCCGUGGUGGAGACAGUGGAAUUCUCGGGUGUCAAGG`, the log2 enrichment was 0.0771.
`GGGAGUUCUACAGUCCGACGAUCGCAGGAAGAAAAAACAAAUGGAAAUGCUUCGGAUAGUGGCAGGGGUGGGGGUUGCUAAGGAAAGGGUGGGAUGGGAGUGGGUAAAGAGUUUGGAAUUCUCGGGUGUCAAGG` has a log2 enrichment of 0.869.
The log2 enrichment of `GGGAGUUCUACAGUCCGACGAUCUUCCCCUGGAGGGCGCCUCCAUCCUUGGAGGCCUAGUGCCGUCGGAGAGAGAGCGGGAGCCGCGGACAGAGACGCGUGCGCAAUUCGGAGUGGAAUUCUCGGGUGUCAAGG` is reported as -1.18.
With `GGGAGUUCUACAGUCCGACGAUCCUCAAGUCCUGUGCUACACAUCGUAUGUACCGAAUCGGUUGGGUUGGGUUGGGGAAAGUAUUAUGUUACGCCGUUCGGAUCUGCACUUCCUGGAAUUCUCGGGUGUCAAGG` the log2 enrichment was 0.575.
For `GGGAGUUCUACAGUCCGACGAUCUAACUUUAGAGGAGGAUCUUAUGGAUAUGGCAGUGGACGUGGAUUUGGGGAUGGCUAUAAUGGGUAUGGAGGAGGACCUGGAGGUGGCAAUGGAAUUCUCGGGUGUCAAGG`, the log2 enrichment was 0.316.

Set 3
Target: Centromere-binding protein 1, full length, N-terminal tag (CBF1, Saccharomyces cerevisiae, UniProt P17106, residues 1-351)
Sequence of UniProt P17106 (whole entry, looked up): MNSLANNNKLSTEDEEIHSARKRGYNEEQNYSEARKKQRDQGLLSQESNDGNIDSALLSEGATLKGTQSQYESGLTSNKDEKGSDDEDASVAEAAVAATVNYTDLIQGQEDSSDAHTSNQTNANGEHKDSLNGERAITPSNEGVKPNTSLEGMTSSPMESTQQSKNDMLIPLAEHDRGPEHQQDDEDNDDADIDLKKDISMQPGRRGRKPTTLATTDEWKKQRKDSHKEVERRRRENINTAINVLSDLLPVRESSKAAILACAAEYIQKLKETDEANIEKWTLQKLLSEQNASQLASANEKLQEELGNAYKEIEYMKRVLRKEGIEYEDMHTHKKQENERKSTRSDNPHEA
Method: protein-binding microarray
Form: double-stranded DNA, one strand shown
Matrix: in vitro
Concentration: 0.8 µM
Setting: whole 60-bp probe, no competitor
Direction: higher = stronger binding
For `GAATATTGTTGGAGTTACGTGAGTTCTCGCATATAGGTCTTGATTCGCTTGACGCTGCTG`, the fluorescence intensity was 535 a.u.
For `CTAGGCGCTGGCGCTCACCCCACAAGAGCGTCCTTCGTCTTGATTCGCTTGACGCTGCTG`, the fluorescence intensity was 470 a.u.
`CTAAAATTCCTCCTTCACGTTCTGTTGAAGGGATTCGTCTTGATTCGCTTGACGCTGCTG` has a fluorescence intensity of 555 a.u.
For `CTAATAGACTATGAATCCGTCATGAAGACACTATTCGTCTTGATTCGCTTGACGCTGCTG`, the fluorescence intensity was 529 a.u.
For `CTAACTAATCAAAATCACGGTAGAAATAGGAGATTCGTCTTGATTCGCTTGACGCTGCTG`, the fluorescence intensity was 553 a.u.
`GAACGTGAATGTATACACGTGACCCTAATGCTCTAGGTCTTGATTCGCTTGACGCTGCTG` has a fluorescence intensity of 15700 a.u.
`GAATGTACAGAGTGTACCACCACGTTTTAATACTAGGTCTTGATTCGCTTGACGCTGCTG` has a fluorescence intensity of 604 a.u.
For `CTATTTTCGCATTCTATCACCTGTATTATTATATTCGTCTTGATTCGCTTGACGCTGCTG`, the fluorescence intensity was 755 a.u.
For `GAACGAATTGTATATCACGAGAGGTGATGGCACTAGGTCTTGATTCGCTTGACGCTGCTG`, the fluorescence intensity was 1390 a.u.

Set 4
Substance: PhoQ, residues 284 288 289 292 302 303 SMYGEC
Method: Sort-seq
Measured: YFP reporter
Matrix: E. coli
Setting: PhoQ-PhoP variant library
With: 10 µM Mg2+
Baseline: high Mg2+ state
Direction: higher = stronger signaling
For PhoP, residues 12 14 15 18 19 LHTVL (Escherichia coli, UniProt P23836): fold induction read 12.7.
The fold induction was 3.56 (PhoP, residues 12 14 15 18 19 TQAML (Escherichia coli, UniProt P23836)).
It gave 2.65 for fold induction (PhoP, residues 12 14 15 18 19 NQCAL (Escherichia coli, UniProt P23836)).
